Assay results of several laboratories.
Each line is one published result; not all experiments were run side by side. Numbers after ± are the reported error.
Organism: Plasmodium falciparum

SMILES	test	test system	conditions	IC50
CCCOC(=O)C1=C(C)NC2=C(C(=O)CC(c3ccc(OC)c(OC)c3)C2)C1c1ccccc1F (stereo not shown)	female gamete formation, item: Pfs25	stage V gametocytes	24 h, compound washed out before gametes	> 20 µM
C=C(C)C1CCC2(CO)CCC3(C)C(CCC4C5(C)CCC(O)C(C)(COC(=O)/C=C/c6ccc(O)cc6)C5CCC43C)C12 (stereo not shown)	parasite growth	Dd2 drug-resistant	72 h	0.26 ± 0.01 µM
COc1ccc(C(=O)/C=C/c2cc(CN3CCN(c4ccnc5cc(Cl)ccc45)CC3)c(O)c(OC)c2)c(OC)c1	parasite growth	DD2	drug-resistant strain, blood stage	0.3 to 0.6 µM
CCOC(=O)C(=CNc1cc(Cl)ccc1Cl)C(=O)OCC	parasite growth, [3H]hypoxanthine incorporation	NF54 (chloroquine-sensitive)		11.3 µM
Clc1ccc2c(Nc3ccc(N4CCN(Cc5ccccc5)CC4)cc3)ccnc2c1	parasite growth, SYBR Green	D6	72 h, blood stage	0.02 µM
CCCCCCCc1c(C)[nH]c2cc(OC)ccc2c1=O	oxygen consumption	K1		0.088 ± 0.024 µM
CCN(CC)CCCC(C)Nc1ccnc2cc(Cl)ccc12 (stereo not shown)	parasite growth, SYBR Green I	Dd2, chloroquine-resistant		0.0938 ± 0.0099 µM
COc1ccc(C2CC(=O)C3=C(C2)NC(C)=C(C(=O)OC(C)C)C3c2ccccc2C)cc1OC (stereo not shown)	male gamete formation	stage V gametocytes	24 h, compound carried over	0.086 µM
CCN1CCN(c2ccc(Nc3ccnc4cc(Br)ccc34)cc2)CC1	parasite growth, SYBR Green	DD2	72 h, drug-resistant strain, blood stage	0.014 µM
CCN(CC)CCCC(C)Nc1ccnc2cc(Cl)ccc12 (stereo not shown)	parasite growth	NF54	blood stage	0.009 µM
COC1=CC(c2ccc[nH]2)=N/C1=C\c1[nH]c(Cc2cccc(F)c2)cc1Cc1cccc(F)c1	parasite growth	D6	72 h	< 0.0083 µM
Cc1cccc(C)c1OCC(=O)N[C@@H](Cc1ccccc1)[C@@H](O)C[C@H](Cc1ccccc1)NC(=O)[C@H](C(C)C)N1CCCNC1=O	parasite growth, flow cytometry	3D7, human O+ erythrocytes	48 h	1.3 µM
C=C(C)[C@@H]1CC[C@]2(COC(C)=O)CC[C@]3(C)[C@H](CC[C@@H]4[C@@]5(C)CC[C@H](OC(C)=O)C(C)(C)[C@@H]5CC[C@]43C)[C@@H]12	parasite growth	Dd2 drug-resistant	72 h	> 10 µM
CCOC(=O)C1=C(C)NC2=C(C(=O)CC(c3ccc(OC)c(OC)c3)C2)C1c1ccccc1Cl (stereo not shown)	male gamete formation	stage V gametocytes	24 h, compound carried over	0.0677 µM
COc1cc(C)c(-c2ccc(O)c3c2C[C@@H](C)N[C@@H]3C)c2cccc(O)c12 (single isomer, unassigned)	parasite growth, SYBR Green	NF54	96 h, blood stage	0.038 µM
O=C1Nc2ccccc2C(=O)CCc2cc(F)ccc21	parasite growth	NF54 chloroquine-sensitive		0.007 µM
COc1cc2nc(C)c(-c3ccc(Oc4ccc(OC(F)(F)F)cc4)cc3)c(OCOC(=O)OC(C)C)c2cc1Cl	parasite growth, SYBR Green I	D6, drug-sensitive	72 h	0.062 µM
O=NN(CCCl)C(=O)Nc1ccc2[nH]c3ccccc3c2c1	parasite growth, [3H]hypoxanthine incorporation	NF54 (chloroquine-sensitive)		5.07 µM
CN1CCN(c2ccc(Nc3ccnc4cc(Cl)ccc34)cc2)CC1	parasite growth, SYBR Green	DD2	72 h, drug-resistant strain, blood stage	0.023 µM
O=C(CCCCCONC(=O)c1ccc(-c2ccccc2)cc1)NO	parasite growth	HN12, NF54	72 h, gametocyte	≤ 1 µM
FC(F)(F)c1ccc(N2CCN(c3ccc(Nc4ccnc5cc(Cl)ccc45)cc3)CC2)cc1	parasite growth, SYBR Green	D6	72 h, blood stage	0.054 µM
O=CC[C@@H](O)[C@H](O)[C@H](O)CO	parasite growth	3D7	48 h, blood stage	4190 µM

SMILES	test	test system	conditions	IC50
CCN(CC)CCCC(C)Nc1ccnc2cc(Cl)ccc12 (stereo not shown)	parasite growth, flow cytometry	3D7	48 h, blood stage	0.00505 µM
COc1ccc(C(=O)/C=C/c2ccc(OCc3cn(-c4ccnc5cc(Cl)ccc45)nn3)c(OC)c2)c(OC)c1	parasite growth	W2	drug-resistant strain, blood stage	0.09 µM
CC(C)(C)OC(=O)N1CCN(c2ccc(Nc3ccnc4cc(Cl)ccc34)cc2)CC1	parasite growth, SYBR Green	DD2	72 h, drug-resistant strain, blood stage	0.217 µM
Oc1cccc(C(Nc2nccs2)c2ccc3cccnc3c2O)c1 (stereo not shown)	ring stage growth	INDO	12 h, early to late ring	> 8 µM
O=C(O)C1Cc2c([nH]c3ccccc23)C(c2ccc(Cl)c(Cl)c2)N1 (stereo not shown)	parasite growth	Dd2		> 10 µM
CCOC(=O)C(=CNc1ccc2c(c1)OCO2)C(=O)OCC	parasite growth, [3H]hypoxanthine incorporation	NF54 (chloroquine-sensitive)		23.4 µM
C[C@H]1[C@@H](OC/C=C\CO)O[C@@H]2O[C@@]3(C)CC[C@H]4[C@H](C)CC[C@@H]1[C@@]24OO3	parasite growth	D6	72 h, blood stage	< 0.01 µM
O=C1Nc2cc(F)cc(F)c2C(=O)CCc2ccccc21	parasite growth	NF54 chloroquine-sensitive		0.13 µM
C/C(=C/C(=O)C[C@]1(C)CCc2cc(O)cc(C)c2O1)CC/C=C(\C)CO	parasite growth, SYBR Green	DD2	72 h, drug-resistant strain, blood stage	> 112 µM
CC(C)(C)c1ccc(O)c(CNC2CCCCC2)c1	female gamete formation, item: Pfs25	stage V gametocytes	24 h, compound washed out before gametes	> 20 µM
C[C@H]1[C@@H](OC/C=C\CO[C@H]2O[C@@H]3O[C@@]4(C)CC[C@H]5[C@H](C)CC[C@@H]([C@H]2C)[C@@]35OO4)O[C@@H]2O[C@@]3(C)CC[C@H]4[C@H](C)CC[C@@H]1[C@@]24OO3	parasite growth	D6	72 h, blood stage	< 0.01 µM
O=C(O)C1Cc2c([nH]c3ccccc23)C(c2ccc(O)cc2Cl)N1 (stereo not shown)	parasite growth	Dd2		> 5 µM
CCCCN1CCC(c2ccc(Nc3ccnc4cc(Cl)ccc34)cc2)CC1	parasite growth, SYBR Green	DD2	72 h, drug-resistant strain, blood stage	0.011 µM
O=C(O)C1Cc2c([nH]c3ccccc23)C(c2ccc(F)c(F)c2F)N1 (stereo not shown)	parasite growth	Dd2		~20 µM
CCC(C)N1CCC(c2ccc(Nc3ccnc4cc(Cl)ccc34)cc2)CC1 (stereo not shown)	parasite growth, SYBR Green	D6	72 h, blood stage	0.0026 µM
CCN(CC)CCCC(C)Nc1ccnc2cc(Cl)ccc12 (stereo not shown)	parasite growth	D6		< 0.026 µg/mL
CSCCC(NC(=O)COc1ccc(Cl)cc1Cl)C(=O)O (stereo not shown)	parasite growth, parasite lactate dehydrogenase	NF54 (chloroquine-sensitive)		> 285 µM
Clc1ccc2c(Nc3ccc(C4CN(Cc5ccccc5)CCO4)cc3)ccnc2c1 (stereo not shown)	parasite growth, SYBR Green	D6	72 h, blood stage	0.101 µM
O=C(O)C1Cc2c([nH]c3ccccc23)C(c2c(F)cc(Cl)cc2F)N1 (stereo not shown)	parasite growth	Dd2		1.8 ± 0.15 µM
C[C@H]1[C@@H](OCC(=O)CO)O[C@@H]2O[C@@]3(C)CC[C@H]4[C@H](C)CC[C@@H]1[C@@]24OO3	parasite growth	D6	72 h, blood stage	< 0.01 µM
CC(C)(C)NC(=O)[C@@H]1CN(Cc2cnc3occc3c2)CCN1C[C@@H](O)C[C@@H](Cc1ccccc1)C(=O)N[C@H]1c2ccccc2C[C@H]1O	ring stage growth	INDO	12 h, early to late ring	> 8 µM

Excerpt of the above:
SMILES	test	test system	conditions	IC50
Cc1cccc(C)c1OCC(=O)N[C@@H](Cc1ccccc1)[C@@H](O)C[C@H](Cc1ccccc1)NC(=O)[C@H](C(C)C)N1CCCNC1=O	parasite growth, flow cytometry	3D7, human O+ erythrocytes	48 h	1.3 µM
C=C(C)[C@@H]1CC[C@]2(COC(C)=O)CC[C@]3(C)[C@H](CC[C@@H]4[C@@]5(C)CC[C@H](OC(C)=O)C(C)(C)[C@@H]5CC[C@]43C)[C@@H]12	parasite growth	Dd2 drug-resistant	72 h	> 10 µM
CCOC(=O)C1=C(C)NC2=C(C(=O)CC(c3ccc(OC)c(OC)c3)C2)C1c1ccccc1Cl (stereo not shown)	male gamete formation	stage V gametocytes	24 h, compound carried over	0.0677 µM
COc1cc(C)c(-c2ccc(O)c3c2C[C@@H](C)N[C@@H]3C)c2cccc(O)c12 (single isomer, unassigned)	parasite growth, SYBR Green	NF54	96 h, blood stage	0.038 µM
O=C1Nc2ccccc2C(=O)CCc2cc(F)ccc21	parasite growth	NF54 chloroquine-sensitive		0.007 µM
